Measurements from different studies.
Protocols differ between the studies behind these lines.
Target: Muscarinic acetylcholine receptor M3 (CHRM3, Homo sapiens, UniProt P20309)
Chain of UniProt P20309 (whole entry, looked up): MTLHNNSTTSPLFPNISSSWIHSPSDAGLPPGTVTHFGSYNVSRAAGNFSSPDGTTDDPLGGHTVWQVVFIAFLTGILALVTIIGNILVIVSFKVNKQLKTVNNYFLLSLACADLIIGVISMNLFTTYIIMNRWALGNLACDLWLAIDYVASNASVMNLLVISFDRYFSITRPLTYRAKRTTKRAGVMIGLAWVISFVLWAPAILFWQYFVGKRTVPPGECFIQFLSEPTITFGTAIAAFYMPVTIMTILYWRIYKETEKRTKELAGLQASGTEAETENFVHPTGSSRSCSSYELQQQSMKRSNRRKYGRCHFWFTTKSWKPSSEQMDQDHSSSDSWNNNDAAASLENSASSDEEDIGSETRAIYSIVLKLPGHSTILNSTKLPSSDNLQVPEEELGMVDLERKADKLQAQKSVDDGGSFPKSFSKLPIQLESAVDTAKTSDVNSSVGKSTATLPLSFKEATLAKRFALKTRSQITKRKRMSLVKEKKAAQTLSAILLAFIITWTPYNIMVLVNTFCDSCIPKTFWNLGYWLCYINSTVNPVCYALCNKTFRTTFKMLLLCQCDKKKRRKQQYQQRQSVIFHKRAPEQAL

Compound	assay	setting	how to read	quantity	result
Cc1cc(-c2ccc3ccccc3c2)nnc1NCCN1CCN(C)CC1	antagonist	10000 nM	relative to: control	activity	0%
C/C(=N\OCCCN1CCCCC1)c1ccc(C(F)(F)F)cc1	antagonist, IP-One	10 µM		inhibition	34.4%
N[C@H](C(=O)N1CCCC1)C1CCN(c2nccc3c(-c4ncc(Cl)cc4Cl)cccc23)CC1	functional response, antagonist	10 µM		inhibition	37%
CCc1nnc(-c2c(OC)cc(-c3cnc4cc(-c5cnn(C)c5)ccn34)cc2OC)o1	antagonist radioligand, radioligand binding	10 µM, SafetyScreen44 M3		inhibition	3%
Cc1sc2c(c1C)C(c1ccc(Cl)cc1)=NC(CC(=O)OC(C)(C)C)c1nnc(C)n1-2 (centres unmarked)	ligand displacement, radioligand	1 µM		remaining binding	104%
CCO[C@H]1[C@H](O)[C@@H](N)[C@@H](O[C@H]2[C@H](O[C@@H]3O[C@H](CO)[C@@H](O[C@H]4O[C@@H](CN)[C@@H](O)[C@H](O)[C@H]4N)[C@H]3O)[C@@H](O)[C@H](N)C[C@@H]2N)O[C@@H]1CO	radioligand binding	10 µM, 1% DMSO		specific binding	12%
Cc1cc(Nc2nc(C[C@@]3(C(=O)O)CCN(Cc4cccc(Cl)c4F)[C@H](C)C3)cc(C)c2F)[nH]n1	agonist	10 µM		activation	-1.04%
CN[C@@H]1[C@H](O)[C@H](NC)[C@H]2O[C@]3(O)[C@H](O[C@@H]2[C@H]1O)O[C@H](C)C[C@H]3NC(=O)Cc1ccc(Cl)cn1	ligand displacement, radioligand	10 µM		inhibition	-1%

For quick reference, copied from above:
Compound	assay	setting	how to read	quantity	result
CN[C@@H]1[C@H](O)[C@H](NC)[C@H]2O[C@]3(O)[C@H](O[C@@H]2[C@H]1O)O[C@H](C)C[C@H]3NC(=O)Cc1ccc(Cl)cn1	ligand displacement, radioligand	10 µM		inhibition	-1%
